Published values pooled from the literature.
Each line is one published result; not all experiments were run side by side.
Method: steady-state kinetics
B1: enzyme (Arabidopsis thaliana, UniProt Q949Q0); chain ISGPPDIINTNRDQRKVVRIAWEKLVRWSRSLRAKAKTDVLERTRKVVVLGGGSFGTAMAAHVARRKEGLEVNMLVRDSFVCQSINENHHNCKYFPEHKLPENVIATTDAKAALLDADYCLHAVPVQFSSSFLEGIADYVDPGLPFISLSKGLELNTLRMMSQIIPIALKNPRQPFVALSGPSFALELMNNLPTAMVVASKDKKLANAVQQLLASSYLRINTSSDVTGVEIAGALKNVLAIAAGIVDGMNLGNNSMAALVSQGCSEIRWLATKMGAKPTTITGLSGTGDIMLTCFVNLSRNRTVGVRLGSGETLDDILTSMNQVAEGVATAGAVIALAQKYNVKLPVLTAVAKIIDNELTPTKAVLELMNLPQIEEV
B2: Ada (Mus musculus, UniProt P03958); chain MAQTPAFNKPKVELHVHLDGAIKPETILYFGKKRGIALPADTVEELRNIIGMDKPLSLPGFLAKFDYYMPVIAGCREAIKRIAYEFVEMKAKEGVVYVEVRYSPHLLANSKVDPMPWNQTEGDVTPDDVVDLVNQGLQEGEQAFGIKVRSILCCMRHQPSWSLEVLELCKKYNQKTVVAMDLAGDETIEGSSLFPGHVEAYEGAVKNGIHRTVHAGEVGSPEVVREAVDILKTERVGHGYHTIEDEALYNRLLKENMHFEVCPWSSYLTGAWDPKTTHAVVRFKNDKANYSLNTDDPLIFKSTLDTDYQMTKKDMGFTEEEFKRLNINAAKSSFLPEEEKKELLERLYREYQ
B3: bshA (Bacillus subtilis, UniProt P42982); chain MRKLKIGITCYPSVGGSGIIATELGKQLAEKGHEIHFITSSIPFRLNTYHPNIHFHEVEVNQYAVFKYPPYDLTLASKIAEVAERENLDIIHAHYALPHAVCAYLAKQMLKRNIGIVTTLHGTDITVLGYDPSLKDLIRFAIESSDRVTAVSSALAAETYDLIKPEKKIETIYNFIDERVYLKKNTAAIKEKHGILPDEKVVIHVSNFRKVKRVQDVIRVFRNIAGKTKAKLLLVGDGPEKSTACELIRKYGLEDQVLMLGNQDRVEDLYSISDLKLLLSEKESFGLVLLEAMACGVPCIGTNIGGIPEVIKNNVSGFLVDVGDVTAATARAMSILEDEQLSNRFTKAAIEMLENEFSSKKIVSQYEQIYADLAEPE
B4: FMO3 N61S (Homo sapiens, UniProt P31513); chain GKKVAIIGAGVSGLASIRSCLEEGLEPTCFEKSNDIGGLWKFSDHAEEGRASIYKSVFSSSSKEMMCFPDFPFPDDFPNFMHNSKIQEYIIAFAKEKNLLKYIQFKTFVSSVNKHPDFATTGQWDVTTERDGKKESAVFDAVMVCSGHHVYPNLPKESFPGLNHFKGKCFHSRDYKEPGVFNGKRVLVVGLGNSGCDIATELSRTAEQVMISSRSGSWVMSRVWDNGYPWDMLLVTRFGTFLKNNLPTAISDWLYVKQMNARFKHENYGLMPLNGVLRKEPVFNDELPASILCGIVSVKPNVKEFTETSAIFEDGTIFEGIDCVIFATGYSFAYPFLDESIIKSRNNEIILFKGVFPPLLEKSTIAVIGFVQSLGAAIPTVDLQSRWAAQVIKGTCTLPSMEDMMNDINEKMEKKRKWFGKSETIQTDYIVYMDELSSFIGAKPNIPWLFLTDPKLAMEVYFGPCSPYQFRLVGPGQWPGARNAILTQWDRSLKPMQTRVVGRLQKPCFFFHWLKLFAIPILLIAVFLVLT
B5: protein (UniProt A0A4Y6I1F8); chain MGSEVVSKKHEFGALEVEGIDFRASVAALGSTKKLVLGGAGFRGLEINGNLVKFTAIGIYVEEAIIPHLSPKLGGKTVEELCANELLFEEVLSAPFDKLIRVVFLLPLTGPQYSEKVVERIGLLPNPGLKEESIKQFLEIFKAENFPPRTSLVCSFTEDGLKIAFMKGPDFPEESDAVIEDKYFARAFLATIIAKDGVSPMAKLSFAERVSKYL
B6: enzyme R201K (Arabidopsis thaliana, UniProt O82390); chain MNARALLCSSNIHSLYTSNRPPEKTSSSRSLRNLKPSPKSLRVWIYPRNRSSVFRVLVRSSDKSESSNSYYVEGDKVSGNNDVVSDSPSSIVLPWWEEFPKRWVIVLLCFSAFLLCNMDRVNMSIAILPMSAEYGWNPATVGLIQSSFFWGYLLTQIAGGIWADTVGGKRVLGFGVIWWSIATILTPVAAKLGLPYLLVVKAFMGVGEGVAMPAMNNILSKWVPVQERSRSLALVYSGMYLGSVTGLAFSPFLIHQFGWPSVFYSFGSLGTVWLTLWLTKAESSPLEDPTLLPEERKLIADNCASKEPVKSIPWRLILSKPPVWALISCHFCHNWGTFILLTWMPTYYHQVLKFNLMESGLLSVFPWMTMAISANAGGWIADTLVSRGFSVTNVRKIMQTIGFLGPAFFLTQLKHIDSPTMAVLCMACSQGTDAFSQSGLYSNHQDIAPRYSGVLLGLSNTAGVLAGVLGTAATGHILQHGSWDDVFTISVGLYLVGTVIWNLFSTGEKIID
B7: enzyme (Halalkalibacterium halodurans, UniProt Q9KCN8); chain MLNVTQLQEATTFIQQQIETKPTIGLILGSGLGILADEIEQPVKVPYSDIPHFPVSTVQGHAGQLVIGMLEGKQVIAMQGRFHFYEGYSLEVVTFPVRVMKALGVEQIIVTNAAGGVNESFEAGDLMIIRDHINNMAQNPLIGPNDEAFGVRFPDMSNAYSERLRTLAKEKGNTLNLKLQEGVYVANTGPVYETPAEVRMIRKLGGDAVGMSTVPEVIVARHAGLEVLGISCISNMAAGILPQPLSHDEVIETTERVRQDFLNLVKAIVKDM
B8: 3-hydroxypropionyl-CoA dehydratase (Metallosphaera sedula, UniProt A4YI89); chain MEFETIETKKEGNLFWITLNRPDKLNALNAKLLEELDRAVSQAESDPEIRVIIITGKGKAFCAGADITQFNQLTPAEAWKFSKKGREIMDKIEALSKPTIAMINGYALGGGLELALACDIRIAAEEAQLGLPEINLGIYPGYGGTQRLTRVIGKGRALEMMMTGDRIPGKDAEKYGLVNRVVPLANLEQETRKLAEKIAKKSPISLALIKEVVNRGLDSPLLSGLALESVGWGVVFSTEDKKEGVSAFLEKREPTFKGK
B9: aromatic amino acid decarboxylase (Bacillus atrophaeus, UniProt I0DFJ0); chain MSENLQLSAEEMRQLGYQAVDLIIDHMNHLKSKPVSETIDSDILRNKLTESIPENGSDPKELLHFLNRNVFNQITHVDHPHFLAFVPGPNNYVGVVADFLASGFNVFPTAWIAGAGAEQIELTTINWLKSMLGFPDSAEGLFVSGGSMANLTALTVARQAKLNNDIENAVVYFSDQTHFSVDRALKVLGFKHHQICRIETDEHLRISVSALKKQIKEDRTKGKKPFCVIANAGTTNCGAVDSLNELADLCNDEDVWLHADGSYGAPAILSEKGSAMLQGIHRADSLTLDPHKWLFQPYDVGCVLIRNSQYLSKTFRMMPEYIKDSETNVEGEINFGECGIELSRRFRALKVWLSFKVFGVAAFRQAIDHGIMLAEQVEAFLGKAKDWEVVTPAQLGIVTFRYIPSELASTDTINEINKKLVKEITHRGFAMLSTTELKEKVVIRLCSINPRTTTEEMLQIMMKIKALAEEVSISYPCVAE
B10: UGT3A2 S435Y (Homo sapiens, UniProt Q3SY77); chain AKILTISTVGGSHYLLMDRVSQILQDHGHNVTMLNHKRGPFMPDFKKEEKSYQVISWLAPEDHQREFKKSFDFFLEETLGGRGKFENLLNVLEYLALQCSHFLNRKDIMDSLKNENFDMVIVETFDYCPFLIAEKLGKPFVAILSTSFGSLEFGLPIPLSYVPVFRSLLTDHMDFWGRVKNFLMFFSFCRRQQHMQSTFDNTIKEHFTEGSRPVLSHLLLKAELWFINSDFAFDFARPLLPNTVYVGGLMEKPIKPVPQDLENFIAKFGDSGFVLVTLGSMVNTCQNPEIFKEMNNAFAHLPQGVIWKCQCSHWPKDVHLAANVKIVDWLPQSDLLAHPSIRLFVTHGGQNSIMEAIQHGVPMVGIPLFGDQPENMVRVEAKKFGVSIQLKKLKAETLALKMKQIMEDKRYKYAAVAASVILRSHPLSPTQRLVGWIDHVLQTGGATHLKPYVFQQPWHEQYLLDVFVFLLGLTLGTLWLCGKLLGMAVWWLRGARKVKET
UniProt H6U1I8, sequence (whole entry, looked up): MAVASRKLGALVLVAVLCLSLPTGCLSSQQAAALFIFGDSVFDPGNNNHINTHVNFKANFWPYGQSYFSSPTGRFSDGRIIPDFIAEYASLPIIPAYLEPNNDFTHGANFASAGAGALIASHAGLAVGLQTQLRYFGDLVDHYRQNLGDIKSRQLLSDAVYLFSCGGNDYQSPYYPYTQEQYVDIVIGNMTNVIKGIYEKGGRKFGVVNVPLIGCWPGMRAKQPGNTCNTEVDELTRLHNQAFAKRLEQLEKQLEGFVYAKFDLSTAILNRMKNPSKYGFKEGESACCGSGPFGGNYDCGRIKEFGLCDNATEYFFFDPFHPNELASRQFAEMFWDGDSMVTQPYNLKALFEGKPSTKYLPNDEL
UniProt P22309, sequence (whole entry, looked up): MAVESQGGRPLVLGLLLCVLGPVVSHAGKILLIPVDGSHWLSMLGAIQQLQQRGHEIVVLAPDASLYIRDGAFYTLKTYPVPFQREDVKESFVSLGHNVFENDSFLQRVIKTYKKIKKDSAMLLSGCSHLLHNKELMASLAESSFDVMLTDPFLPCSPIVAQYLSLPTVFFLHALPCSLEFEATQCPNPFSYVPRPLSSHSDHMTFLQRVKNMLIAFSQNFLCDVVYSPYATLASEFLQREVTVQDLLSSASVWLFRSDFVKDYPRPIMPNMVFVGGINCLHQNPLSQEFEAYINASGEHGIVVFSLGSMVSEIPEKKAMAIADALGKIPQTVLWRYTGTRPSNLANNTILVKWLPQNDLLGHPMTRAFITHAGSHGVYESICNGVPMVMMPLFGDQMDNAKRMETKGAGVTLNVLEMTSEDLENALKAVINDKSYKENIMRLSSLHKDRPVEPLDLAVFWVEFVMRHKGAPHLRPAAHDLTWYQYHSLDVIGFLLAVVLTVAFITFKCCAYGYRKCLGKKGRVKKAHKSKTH
UniProt O60656, sequence (whole entry, looked up): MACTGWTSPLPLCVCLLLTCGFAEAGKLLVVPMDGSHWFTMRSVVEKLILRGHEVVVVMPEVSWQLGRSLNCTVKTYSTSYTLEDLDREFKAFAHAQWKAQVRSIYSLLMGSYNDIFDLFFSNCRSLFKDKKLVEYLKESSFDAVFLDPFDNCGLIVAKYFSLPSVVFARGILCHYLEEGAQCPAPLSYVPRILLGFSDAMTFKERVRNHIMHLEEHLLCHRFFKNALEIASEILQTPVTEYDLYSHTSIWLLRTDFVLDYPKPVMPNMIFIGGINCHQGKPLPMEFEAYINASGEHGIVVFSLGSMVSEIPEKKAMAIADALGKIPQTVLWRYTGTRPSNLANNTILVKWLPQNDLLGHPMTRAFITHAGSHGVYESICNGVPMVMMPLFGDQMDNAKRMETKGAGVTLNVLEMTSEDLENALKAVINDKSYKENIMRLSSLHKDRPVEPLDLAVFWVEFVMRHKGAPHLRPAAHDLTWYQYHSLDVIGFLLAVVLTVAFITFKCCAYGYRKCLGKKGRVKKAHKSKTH
UniProt Q04JB0, sequence (whole entry, looked up): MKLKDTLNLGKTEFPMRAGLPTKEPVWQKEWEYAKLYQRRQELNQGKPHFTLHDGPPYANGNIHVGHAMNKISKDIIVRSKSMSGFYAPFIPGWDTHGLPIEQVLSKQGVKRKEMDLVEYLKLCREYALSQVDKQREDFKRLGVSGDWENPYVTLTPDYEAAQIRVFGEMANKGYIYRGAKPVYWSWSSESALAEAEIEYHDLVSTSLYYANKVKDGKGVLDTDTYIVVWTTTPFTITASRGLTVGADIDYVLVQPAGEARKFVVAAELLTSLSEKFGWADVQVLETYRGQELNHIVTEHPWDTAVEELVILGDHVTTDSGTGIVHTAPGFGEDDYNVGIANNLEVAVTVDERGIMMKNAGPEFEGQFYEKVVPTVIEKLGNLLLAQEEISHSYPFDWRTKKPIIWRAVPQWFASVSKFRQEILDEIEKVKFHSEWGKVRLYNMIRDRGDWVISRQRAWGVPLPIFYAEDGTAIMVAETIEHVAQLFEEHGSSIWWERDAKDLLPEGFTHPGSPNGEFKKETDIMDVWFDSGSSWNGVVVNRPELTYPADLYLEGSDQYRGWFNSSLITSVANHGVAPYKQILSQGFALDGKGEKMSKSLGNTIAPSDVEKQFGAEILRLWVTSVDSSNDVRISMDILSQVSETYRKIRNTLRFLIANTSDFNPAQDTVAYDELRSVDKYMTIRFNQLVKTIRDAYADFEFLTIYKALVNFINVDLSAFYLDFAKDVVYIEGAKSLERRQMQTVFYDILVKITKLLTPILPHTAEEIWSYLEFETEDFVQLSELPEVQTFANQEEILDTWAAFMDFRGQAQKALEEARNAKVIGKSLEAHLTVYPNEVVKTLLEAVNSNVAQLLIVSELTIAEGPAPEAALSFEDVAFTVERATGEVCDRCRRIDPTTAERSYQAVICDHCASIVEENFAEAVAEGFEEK
UniProt Q52060, sequence (whole entry, looked up): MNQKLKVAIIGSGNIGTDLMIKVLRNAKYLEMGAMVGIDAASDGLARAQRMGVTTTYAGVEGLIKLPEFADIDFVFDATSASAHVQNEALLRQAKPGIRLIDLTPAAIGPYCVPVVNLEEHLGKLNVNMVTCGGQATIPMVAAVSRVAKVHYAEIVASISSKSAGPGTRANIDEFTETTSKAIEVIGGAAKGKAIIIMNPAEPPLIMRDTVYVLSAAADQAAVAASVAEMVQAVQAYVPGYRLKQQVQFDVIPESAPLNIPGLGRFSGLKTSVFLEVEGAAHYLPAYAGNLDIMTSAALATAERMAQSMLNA

For `B1 (enzyme)`, the Vmax was 41.1 µmol/min/mg (O=C(CO)COP(=O)(O)O; pH 7.2, 30 °C, apparent).
With `B2 (Ada)` the Vmax was 0.0121 µmol/min/mg (Nc1ncnc2c1ncn2[C@@H]1O[C@H](CO)C[C@H]1O; mouse erythrocytes; pH 5.8, 37 °C).
For `B3 (bshA)`, the Vmax was 11.2 µmol/min/mg (O=C(O)C[C@H](O)C(=O)O; pH 7.5, 37 °C, apparent, with: UDP-GlcNAc 10 mM).
The Vmax of `B4 (FMO3 N61S)` is reported as 1.82e-05 µmol/min/mg (CN1CCC[C@H]1c1cccnc1; HEK293 microsomes; 37 °C, not purified, with: NADPH regenerating system).
`B5 (protein)` gave a Vmax of 214 µmol/min/mg (O=C(/C=C/c1ccc(O)cc1)c1c(O)cc(O)cc1O).
With `protein (Danio rerio, UniProt A0ACM8QCA3)` the Vmax was 0.0403 µmol/min/mg (C[C@H](CCCC(CO)CO)[C@H]1CC[C@H]2[C@@H]3[C@H](O)C[C@H]4C[C@H](O)CC[C@]4(C)[C@H]3C[C@H](O)[C@]12C; pH 7, 28 °C, substrate inhibition, with: PAPS 14 µM).
With `B6 (enzyme R201K)` the Vmax was 0.00168 µmol/min/mg (O=P(O)(O)O; pH 6.5, 25 °C, apparent, not purified).
With `speG (Vibrio cholerae, UniProt Q9KL03)` the Vmax was 263 µmol/min/mg (CC(=O)SCCNC(=O)CCNC(=O)[C@H](O)C(C)(C)COP(=O)(O)OP(=O)(O)OC[C@H]1O[C@@H](n2cnc3c(N)ncnc32)[C@H](O)[C@@H]1OP(=O)(O)O; pH 9, 37 °C).
`enzyme (Tanacetum cinerariifolium, UniProt H6U1I8)` has a Vmax of 0.112 µmol/min/mg (C=CCC1=C(C)[C@@H](O)CC1=O; pH 7.5, 25 °C).
The Vmax of `B7 (enzyme)` is reported as 286 µmol/min (OC[C@H]1O[C@@H](n2cnc3c(O)ncnc32)[C@H](O)[C@@H]1O).
For `protein (UniProt Q52060)`, the Vmax was 1.01 µmol/min/mg (CC=O; cell extract; not purified, with: CoA).
`B8` gave a Vmax of 272 µmol/min/mg (CC(C)(COP(=O)(O)OP(=O)(O)OC[C@H]1O[C@@H](n2cnc3c(N)ncnc32)[C@H](O)[C@@H]1OP(=O)(O)O)[C@@H](O)C(=O)NCCC(=O)NCCSC(=O)CCO; pH 6.5, 65 °C, substrate made in situ, with: ATP, CoA, NADPH).
`UGT1A9 (Homo sapiens, UniProt O60656)` gave a Vmax of 0.000132 µmol/min/mg (COc1cccc(-c2cc(=O)c3ccc(O)cc3o2)c1; pH 7.4, 37 °C).
The Vmax of `ileS (Streptococcus pneumoniae, UniProt Q04JB0)` is reported as 0.0005 µM/min/mg (CC[C@H](C)[C@H](N)C(=O)O; pH 7.2, 37 °C, with: ATP 2 mM).
`UGT1A1 (Homo sapiens, UniProt P22309)` gave a Vmax of 0.00057 µmol/min/mg (COc1cc2c(cc1CC=C(C)C)C(=O)C[C@@H](c1ccc(O)cc1)O2; pH 7.4, 37 °C).
For `B9`, the Vmax was 0.2 µmol/min/mg (N[C@@H](Cc1c[nH]c2c(Br)cccc12)C(=O)O; pH 7, 37 °C, not purified, with: PLP 40 µM).
For `B10 (UGT3A2 S435Y)`, the Vmax was 0.000707 µmol/min/mg (O=c1ccn([C@@H]2O[C@H](CO[P@@](=O)(O)O[P@@](=O)(O)O[C@H]3O[C@H](CO)[C@@H](O)[C@H](O)[C@H]3O)[C@@H](O)[C@H]2O)c(=O)[nH]1; pH 7.4, 37 °C, not purified, with: 1-OH-pyrene 16 µM, MgCl2 10 mM, alamethicin).

A few entries again:
`enzyme (Tanacetum cinerariifolium, UniProt H6U1I8)` has a Vmax of 0.112 µmol/min/mg (C=CCC1=C(C)[C@@H](O)CC1=O; pH 7.5, 25 °C).
For `protein (UniProt Q52060)`, the Vmax was 1.01 µmol/min/mg (CC=O; cell extract; not purified, with: CoA).
